Results from different studies.
Numbered parts are unrelated; each lists some results of a single study. Positions count from the first letter of the parent shown.
Sequence of UniProt Q16763 (whole entry, looked up): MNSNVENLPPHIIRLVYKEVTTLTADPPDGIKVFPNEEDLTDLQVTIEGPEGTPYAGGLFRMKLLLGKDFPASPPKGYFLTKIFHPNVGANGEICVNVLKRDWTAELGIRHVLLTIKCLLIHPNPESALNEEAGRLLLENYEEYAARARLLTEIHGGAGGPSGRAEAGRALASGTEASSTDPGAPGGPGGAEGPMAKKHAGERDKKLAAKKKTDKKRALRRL
Sequence of UniProt Q7Z7E8 (whole entry, looked up): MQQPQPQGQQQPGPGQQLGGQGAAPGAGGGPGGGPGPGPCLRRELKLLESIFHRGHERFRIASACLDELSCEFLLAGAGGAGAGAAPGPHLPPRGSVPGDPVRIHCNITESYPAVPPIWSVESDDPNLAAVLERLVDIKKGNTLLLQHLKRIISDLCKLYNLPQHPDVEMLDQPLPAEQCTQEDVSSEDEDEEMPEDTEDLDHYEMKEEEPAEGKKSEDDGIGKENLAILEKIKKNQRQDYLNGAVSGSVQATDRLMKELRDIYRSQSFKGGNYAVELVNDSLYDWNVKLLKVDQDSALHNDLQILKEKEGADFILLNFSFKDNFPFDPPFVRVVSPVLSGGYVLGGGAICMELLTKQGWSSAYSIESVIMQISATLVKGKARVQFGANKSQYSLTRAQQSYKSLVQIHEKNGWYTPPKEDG
Sequence of UniProt Q712K3 (whole entry, looked up): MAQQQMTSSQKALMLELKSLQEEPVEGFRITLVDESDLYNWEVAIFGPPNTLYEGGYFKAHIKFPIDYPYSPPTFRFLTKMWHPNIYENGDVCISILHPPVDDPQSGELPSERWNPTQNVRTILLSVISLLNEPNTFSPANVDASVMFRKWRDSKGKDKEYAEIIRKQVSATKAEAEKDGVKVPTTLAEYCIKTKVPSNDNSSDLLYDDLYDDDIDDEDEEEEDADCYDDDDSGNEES
Sequence of UniProt O00762 (whole entry, looked up): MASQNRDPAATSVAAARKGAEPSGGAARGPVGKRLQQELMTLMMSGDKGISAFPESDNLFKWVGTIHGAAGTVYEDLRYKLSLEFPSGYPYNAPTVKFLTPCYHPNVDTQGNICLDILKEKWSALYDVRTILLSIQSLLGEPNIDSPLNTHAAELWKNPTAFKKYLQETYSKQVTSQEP
Sequence of UniProt Q8N2K1 (whole entry, looked up): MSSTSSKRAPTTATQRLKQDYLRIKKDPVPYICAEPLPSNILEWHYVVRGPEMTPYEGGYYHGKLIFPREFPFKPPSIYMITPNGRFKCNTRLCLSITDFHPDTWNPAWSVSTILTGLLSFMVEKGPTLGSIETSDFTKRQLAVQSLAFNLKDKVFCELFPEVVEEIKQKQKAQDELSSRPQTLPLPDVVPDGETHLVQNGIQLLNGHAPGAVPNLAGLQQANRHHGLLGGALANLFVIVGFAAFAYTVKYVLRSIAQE
Sequence of UniProt P63146 (whole entry, looked up): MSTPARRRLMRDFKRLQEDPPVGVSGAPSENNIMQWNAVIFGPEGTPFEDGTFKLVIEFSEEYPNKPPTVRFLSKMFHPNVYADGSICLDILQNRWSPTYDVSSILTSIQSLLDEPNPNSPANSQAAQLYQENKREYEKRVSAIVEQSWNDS
Sequence of UniProt Q9C0C9 (whole entry, looked up): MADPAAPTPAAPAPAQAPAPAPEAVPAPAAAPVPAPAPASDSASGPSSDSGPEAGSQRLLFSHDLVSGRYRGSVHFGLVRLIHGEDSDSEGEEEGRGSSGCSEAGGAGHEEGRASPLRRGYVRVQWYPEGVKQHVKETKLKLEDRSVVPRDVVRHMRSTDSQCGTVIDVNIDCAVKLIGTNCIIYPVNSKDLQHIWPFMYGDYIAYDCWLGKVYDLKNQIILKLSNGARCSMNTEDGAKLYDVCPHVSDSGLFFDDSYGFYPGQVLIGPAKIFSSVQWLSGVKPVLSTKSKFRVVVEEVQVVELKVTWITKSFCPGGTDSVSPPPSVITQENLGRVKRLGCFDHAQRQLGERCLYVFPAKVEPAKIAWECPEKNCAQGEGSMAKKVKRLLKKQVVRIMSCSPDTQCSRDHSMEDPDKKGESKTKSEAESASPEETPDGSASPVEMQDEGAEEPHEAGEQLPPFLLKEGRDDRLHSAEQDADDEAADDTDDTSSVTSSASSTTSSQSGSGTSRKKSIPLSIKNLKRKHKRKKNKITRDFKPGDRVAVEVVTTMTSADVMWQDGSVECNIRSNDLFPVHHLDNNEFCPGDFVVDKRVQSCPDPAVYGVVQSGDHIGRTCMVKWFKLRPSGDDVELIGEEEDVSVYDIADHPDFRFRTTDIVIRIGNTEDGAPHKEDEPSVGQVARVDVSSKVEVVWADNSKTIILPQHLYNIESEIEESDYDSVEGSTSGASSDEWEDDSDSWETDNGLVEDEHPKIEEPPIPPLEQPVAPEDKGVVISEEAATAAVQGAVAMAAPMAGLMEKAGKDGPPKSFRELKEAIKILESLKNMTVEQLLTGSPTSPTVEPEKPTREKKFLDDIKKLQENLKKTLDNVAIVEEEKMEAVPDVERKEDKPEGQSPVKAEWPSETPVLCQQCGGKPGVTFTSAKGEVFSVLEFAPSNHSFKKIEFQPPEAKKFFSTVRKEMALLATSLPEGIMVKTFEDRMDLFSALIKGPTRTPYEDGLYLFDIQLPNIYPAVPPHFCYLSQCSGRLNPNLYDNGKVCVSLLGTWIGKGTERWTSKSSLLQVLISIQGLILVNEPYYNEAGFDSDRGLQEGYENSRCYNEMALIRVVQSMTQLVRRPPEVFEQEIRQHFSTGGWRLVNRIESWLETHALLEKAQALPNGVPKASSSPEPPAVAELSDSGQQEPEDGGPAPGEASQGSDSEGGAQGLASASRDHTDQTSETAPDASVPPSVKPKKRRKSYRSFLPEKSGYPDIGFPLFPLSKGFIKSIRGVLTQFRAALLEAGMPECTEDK
Sequence of UniProt Q969T4 (whole entry, looked up): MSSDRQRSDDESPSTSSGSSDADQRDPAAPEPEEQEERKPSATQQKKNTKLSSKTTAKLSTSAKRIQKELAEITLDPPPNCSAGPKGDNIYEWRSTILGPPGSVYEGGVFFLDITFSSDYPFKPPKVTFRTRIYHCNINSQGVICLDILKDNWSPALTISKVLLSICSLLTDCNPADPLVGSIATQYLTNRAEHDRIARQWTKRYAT

Sample 1
Target: CCNB1, cyclin fold, Cln2 fusion (human)
Method: yeast growth competition, sequencing
Sample: yeast
Setting: weak parent motif
Relative to: not given
Reading: higher = stronger binding
Quantity: normalised enrichment score
Starting sequence: ORC1 docking peptide (human); PRARKRLELGNLG
PRARKRNELGNLG [L7N]: -0.000331
PRARKRLILGNLG [E8I]: -0.125
PDARKRLELGNLG [R2D]: 0.288
PRARKRLELLNLG [G10L]: 1.35
KRARKRLELGNLG [P1K]: 1.01
PRARKRLNLGNLG [E8N]: 0.903
PRARARAELGNLG [K5A L7A]: 0.432
PRARIRLELGNLG [K5I]: 0.872
PRARKRLELGCLG [N11C]: 1.16
PRARKRLELPNLG [G10P]: 0.414
PRARKRMELGNLG [L7M]: 0.611
PRARKRLEPGNLG [L9P]: -0.00362
PRAYKRLELGNLG [R4Y]: 0.0494
PRARKRLELGVLG [N11V]: 0.794
PRARKRLYLGNLG [E8Y]: 0.0116
PRARKRLELCNLG [G10C]: 0.557
PRARKRLELGDLG [N11D]: 0.822
PRARKRPELGNLG [L7P]: -0.198
PRARKRLELGFLG [N11F]: 0.91
PRARKRLELGNIG [L12I]: 0.138
PRFRKRLELGNLG [A3F]: 0.424
PRARKRLELGNMG [L12M]: 0.995
PRARKRLELGNQG [L12Q]: 0.375
PRARKRLELGNTG [L12T]: 0.618

Sample 2
Target: CEBPE, bZIP domain (human)
Method: DHFR protein complementation
Sample: yeast
Setting: single substitutions, most at no-binding floor
Relative to: wild-type JUN-FOS pair
Reading: higher = stronger binding
Quantity: binding fitness
Starting sequence: JUN, bZIP domain (human); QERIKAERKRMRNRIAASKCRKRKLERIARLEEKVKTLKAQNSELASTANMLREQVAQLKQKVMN; partner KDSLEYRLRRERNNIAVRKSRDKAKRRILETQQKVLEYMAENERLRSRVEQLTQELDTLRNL
M51A: -0.976 natural log
K36W: -1.29 natural log
L31Y: -1.47 natural log
K39F: -1.37 natural log
K39R: -1.04 natural log
A29S: -1.15 natural log
S43H: -1.07 natural log
R53C: -1.21 natural log
S47K: -0.824 natural log
A40E: -1.17 natural log
S47Y: -1.14 natural log
A46S: -1.2 natural log
S47H: -1.03 natural log
R53F: -1.18 natural log

Sample 3
Target: ABI1, truncated, D143A, DHFR fusion (Arabidopsis thaliana)
Method: DHFR PCA, deep sequencing
Sample: yeast
Setting: methotrexate growth selection, single substitutions
With: (+)-ABA 2500 µM
Relative to: wild-type fitted maximum
Reading: higher = stronger binding
Quantity: relative binding score
Starting sequence: PYL1, truncated, DHFR fusion (Arabidopsis thaliana); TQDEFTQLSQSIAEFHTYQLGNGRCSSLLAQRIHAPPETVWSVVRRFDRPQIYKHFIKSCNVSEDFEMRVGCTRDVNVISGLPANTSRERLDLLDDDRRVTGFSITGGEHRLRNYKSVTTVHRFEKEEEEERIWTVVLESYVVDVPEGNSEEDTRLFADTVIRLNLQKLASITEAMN; partner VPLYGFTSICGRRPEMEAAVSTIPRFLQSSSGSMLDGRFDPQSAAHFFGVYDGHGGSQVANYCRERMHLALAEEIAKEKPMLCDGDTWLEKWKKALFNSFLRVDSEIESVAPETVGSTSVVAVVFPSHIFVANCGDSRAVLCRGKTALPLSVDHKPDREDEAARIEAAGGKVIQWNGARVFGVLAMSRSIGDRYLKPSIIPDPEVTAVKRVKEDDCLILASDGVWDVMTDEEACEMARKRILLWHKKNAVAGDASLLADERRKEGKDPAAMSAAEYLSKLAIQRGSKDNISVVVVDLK
T154M: 92.8%
H16M: 52.8%
N165K: 73.1%
K54E: -14.5%
G21C: 94.5%
V137D: -1.58%
P36A: 101%
V100F: 84.3%
W134R: 94%
K116R: 98.3%
N165Q: 65.4%
P37W: 82.1%
G23V: 92.3%

Sample 4
Target: RING finger protein unkempt homolog, zinc fingers 1-6, GST-SBP tag (UNK, Homo sapiens, UniProt Q9C0B0, residues 30-357)
Sequence of UniProt Q9C0B0 (30-357, looked up): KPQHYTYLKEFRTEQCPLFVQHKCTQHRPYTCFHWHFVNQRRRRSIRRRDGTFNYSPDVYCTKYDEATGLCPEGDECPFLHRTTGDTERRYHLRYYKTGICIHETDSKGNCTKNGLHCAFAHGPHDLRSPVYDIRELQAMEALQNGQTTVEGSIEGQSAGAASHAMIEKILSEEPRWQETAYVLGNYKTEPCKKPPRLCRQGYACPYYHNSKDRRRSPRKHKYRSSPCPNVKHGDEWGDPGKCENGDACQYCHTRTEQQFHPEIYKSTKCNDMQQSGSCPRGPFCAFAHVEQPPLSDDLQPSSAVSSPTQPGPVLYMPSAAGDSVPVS
Method: RNA Bind-n-Seq
Form: RNA
Sample: in vitro
Tested at: not given
Setting: RNA with constant flanks, human and mouse sites, ends assumed
Relative to: input RNA pool
Reading: higher = stronger binding
Quantity: bound/input enrichment
Constant ends, left off below: GGGAGUUCUACAGUCCGACGAUC … CAACAGAGGAUUGAGCAUCA
CAGCCUUAAGCACAAUUAAUUAAGAGUGAAACGUAAUUGUACAAGCAGUUGGUCACCCACCAUAGGGCAUGAUCAACACCGCAACCUUUCCUUUUUCCCCCAGUGAUUCUGAAAAACCCC: 0.299 ratio
CAUCAUCGGGUGGGCGAGACAGCCCCACCCAAUGCCUACACUGUCACUGACCUAGUGGAGUAUAGCAUCGUGAUCCAGCAGCUCUCAAAUGGCAAAUGGGUCCCCUUUGAUGGCGAUGAC: 0.145 ratio
AGUCUUCUAUUUUUAAUAGGAACUUAGAAAAAACUUAGAAUUAUAUAUAGAGUUGUUUCCUUUAGAAACCAGAGCUAUUUAUUUGUAUUUAAAGCACUGUUUAUUAUUUGUACUGAUUCU: 98.5 ratio
GGAAUGGAUGCCCUUCCUUACAUUGACCUUAUCGACCCAGCUGAGAUCGACCUUCUGUUGAUCAGUCAUUUCCAUUUGGAUCACUGUGGAGCCCUGCCCUGGUUCCUUCAGAAGACAAGU: 0.157 ratio
CCAGGCUGGAGUCAUUUACAAGUUUCUCCACGUAGAUUGUAGUCAGGUUUCUCCCAGACCUUAGGCGUUUGUAUUUUUUUUUUUAAUUUUAAUUUCACUGUUACCCUUGACUAUUGUCCU: 451 ratio
GUGCUGCAGGCCUUGCGCCUCCAACCAGGACUUUCUUCUUAAUGCUCUCGACACUUAGCUAAACACGACUAUAUCCCGGCCCAGCAGGCCCCAGCGCCGUUAGUCUCCAGCUGACUCUGU: 0.276 ratio
GCUUUCCCUGCCUUCCUGGGGACCGAGGCCUCCAGCUCAGGCAAUGGCUCCUGGCUGGAGCUGAUACCACUGGCUGCUGUGAGCGUCCACCUGCUAACAGGCAAUGGGACAGAGGUGCCU: 0.153 ratio
GAGAUCGAUUGCACCAUGCUCACCCCUGAGCCAGUUUUAAAGACCUCUGGCCAUGUAGACAAAUUUGCUGACUUCAUGGUGAAAGACGUAAAAAAUGGAGAAUGUUUUCGUGCUGACCAU: 0.154 ratio
AGAAAAUUGUGCUACUGUGUGUGCGUGUGCGUGCGUGUGUGUAGUGCUAGGAGUCCACAGUAGGUCUCUGUCAAGCCGAUGUCGUGAUGAGGGCUUUUCUGAUACUGACCCAGAAGCCAC: 0.105 ratio
AUUCAUCGAAGCACACAUCCAGGAGAAAAACCCUAUAAAUGUAGUGAGUGUAGAAAAGCUUUCUUUUGGAAUUCACAACUCAUUACUCAUCGGAGGUCACAUAGAGGGAAGAAACCUUAU: 0.356 ratio
GCAGACAAGGCAGGGUUGCACUUCCUGCAGAAGAGGAUUAUUUACCACUUAAACCACGAGUUGGAAAAGCUGCUAAGGAAUACCCGUUCAUUCUUGAUGCUUUUCAAAGAGAGGCCAUUC: 0.146 ratio

Sample 5
Substance: RNF13 RING domain (UniProt O43567)
Sequence of UniProt O43567 (whole entry, looked up): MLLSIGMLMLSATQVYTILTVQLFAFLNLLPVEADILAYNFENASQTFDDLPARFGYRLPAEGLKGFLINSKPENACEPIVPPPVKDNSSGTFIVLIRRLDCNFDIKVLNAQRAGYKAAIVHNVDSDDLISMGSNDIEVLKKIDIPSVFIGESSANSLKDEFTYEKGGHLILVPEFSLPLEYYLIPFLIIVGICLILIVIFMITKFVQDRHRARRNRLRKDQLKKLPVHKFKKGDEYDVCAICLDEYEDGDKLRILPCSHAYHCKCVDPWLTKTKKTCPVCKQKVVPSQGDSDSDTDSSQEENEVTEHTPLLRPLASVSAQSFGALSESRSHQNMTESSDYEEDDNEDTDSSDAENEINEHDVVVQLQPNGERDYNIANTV
Method: yeast two-hybrid
Sample: yeast
Setting: mostly zero background
Relative to: not given
Reading: higher = stronger interaction
Quantity: lacZ reporter activity
BIRC6 UBC core domain (UniProt Q9NR09): 0
UBE2B UBC core domain (UniProt P63146): 0
UBE2Q1 UBC core domain (UniProt Q7Z7E8): 0
UBE2O UBC core domain (UniProt Q9C0C9): 0
UBE2S UBC core domain (UniProt Q16763): 0
UBE2E3 UBC core domain (UniProt Q969T4): 6600
UBE2C UBC core domain (UniProt O00762): 0
UBE2R2 UBC core domain (UniProt Q712K3): 0
UBE2J2 UBC core domain (UniProt Q8N2K1): 0

Sample 6
Target: Sal-like protein 4, full length isoform A (SALL4, Homo sapiens, UniProt Q9UJQ4, residues 1-1053)
Sequence of UniProt Q9UJQ4 (whole entry, looked up): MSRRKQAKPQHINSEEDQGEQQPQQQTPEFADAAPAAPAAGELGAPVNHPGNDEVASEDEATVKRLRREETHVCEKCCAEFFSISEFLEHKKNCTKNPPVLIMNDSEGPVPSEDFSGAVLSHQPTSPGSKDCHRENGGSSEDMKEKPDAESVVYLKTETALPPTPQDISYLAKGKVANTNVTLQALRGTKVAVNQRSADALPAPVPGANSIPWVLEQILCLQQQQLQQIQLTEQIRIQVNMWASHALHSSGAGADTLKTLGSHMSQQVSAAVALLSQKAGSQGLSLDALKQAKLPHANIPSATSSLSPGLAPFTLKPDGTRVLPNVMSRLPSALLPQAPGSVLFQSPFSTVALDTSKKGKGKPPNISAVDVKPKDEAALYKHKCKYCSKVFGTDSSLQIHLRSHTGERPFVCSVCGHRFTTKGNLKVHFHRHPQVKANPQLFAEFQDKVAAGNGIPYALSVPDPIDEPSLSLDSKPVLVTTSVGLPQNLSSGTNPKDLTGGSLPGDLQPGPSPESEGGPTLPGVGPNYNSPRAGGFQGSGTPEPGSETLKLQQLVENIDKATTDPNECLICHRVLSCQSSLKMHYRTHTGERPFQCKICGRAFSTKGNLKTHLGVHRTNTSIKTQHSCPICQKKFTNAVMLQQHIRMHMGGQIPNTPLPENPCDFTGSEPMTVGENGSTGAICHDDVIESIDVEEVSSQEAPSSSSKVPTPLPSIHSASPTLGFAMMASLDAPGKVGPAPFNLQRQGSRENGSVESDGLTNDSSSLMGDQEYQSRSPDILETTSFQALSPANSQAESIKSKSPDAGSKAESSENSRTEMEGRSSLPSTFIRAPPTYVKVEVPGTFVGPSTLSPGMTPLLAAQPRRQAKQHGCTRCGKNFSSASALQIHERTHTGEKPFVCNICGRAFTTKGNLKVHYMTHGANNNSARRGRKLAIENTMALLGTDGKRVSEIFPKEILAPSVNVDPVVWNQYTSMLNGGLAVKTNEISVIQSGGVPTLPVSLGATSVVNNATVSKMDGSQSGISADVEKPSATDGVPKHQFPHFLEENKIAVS
Method: universal PBM
Form: double-stranded DNA, one strand shown
Sample: in vitro
Tested at: 600 nM
Setting: 8-mer, flanks averaged, mean of replicates
Reading: higher = stronger binding
Quantity: E-score
CTCAGGAC: -0.112
ACCCATAA: 0.19
ATGCACAG: -0.0768
TGCGGACA: -0.114
ACTGGGTC: -0.241
ACACATGT: 0.0922
GTCCAGCA: -0.173
GCGGGTCC: -0.409
AAAAACGG: -0.0234
AAAATCTA: 0.294
CATGCGAA: 0.0903
ATTCCAGG: -0.0776
CCGGTTCA: -0.202
ACCTACCA: -0.12
ATCAGGAC: -0.0525
AACTATGC: 0.215
CCACCTCC: -0.135
GGCTACAC: -0.0126
CCCGTAAG: -0.155
ATCCGGCA: -0.0903
GAGACAGA: 0.0454
CAAGAATA: 0.299
GAACTCAC: 0.00948
ATTGTATG: 0.251
GGGAGCTA: -0.233

Sample 7
Target: Histone acetyltransferase KAT6A, both winged helices, GST fusion (KAT6A, Homo sapiens, UniProt Q92794, residues 1-181)
Method: protein binding microarray
Form: double-stranded DNA, one strand shown
Sample: in vitro
Tested at: not given
Setting: 8-mer, flanks averaged, mean of 2 arrays, mostly near background
Relative to: not given
Reading: higher = stronger binding
Quantity: E-score
Construct (chain): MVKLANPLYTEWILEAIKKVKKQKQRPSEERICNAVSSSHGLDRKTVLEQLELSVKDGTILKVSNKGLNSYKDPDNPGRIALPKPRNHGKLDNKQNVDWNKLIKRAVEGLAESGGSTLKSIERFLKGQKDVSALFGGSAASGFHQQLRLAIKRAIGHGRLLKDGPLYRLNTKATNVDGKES
GCGCCTCC: 0.211
GATGAGAC: -0.0262
CACCAAAG: -0.106
CGATTTCC: -0.0136
GCGTCCGA: 0.23
CGAGCCGA: 0.00898
TACTATGA: -0.0541
CAATTTTA: 0.0238
ATAGTACC: 0.00249
GAATTTTA: -0.0379
AACTCATG: -0.0283
TATTTAGA: -0.0121
CGTCGCAC: 0.26
ATTGTATC: -0.0901
ATACGGAA: 0.204
GCCTGATA: -0.0313
ACTATCCT: -0.216
GATTTGCC: -0.0778
GAAAATAA: -0.0418
CACAGTCA: -0.177
CGCTTATC: 0.144
GGGGGCGA: -0.0128
CTAAGAGC: -0.0365
GAAACAAA: -0.0673
GCAGGGTA: -0.253

For quick reference, copied from above (sample 1):
PRARKRNELGNLG [L7N]: -0.000331
PRARKRLELGNQG [L12Q]: 0.375
PDARKRLELGNLG [R2D]: 0.288
PRARKRLELGVLG [N11V]: 0.794
PRARARAELGNLG [K5A L7A]: 0.432
PRARKRPELGNLG [L7P]: -0.198
PRARKRLELGDLG [N11D]: 0.822
PRAYKRLELGNLG [R4Y]: 0.0494
PRARKRLNLGNLG [E8N]: 0.903
PRFRKRLELGNLG [A3F]: 0.424
PRARKRLELGCLG [N11C]: 1.16
PRARKRLELLNLG [G10L]: 1.35
PRARIRLELGNLG [K5I]: 0.872
PRARKRLILGNLG [E8I]: -0.125
PRARKRMELGNLG [L7M]: 0.611
PRARKRLYLGNLG [E8Y]: 0.0116
